Assay results pooled from the literature.
A part holds a random share of what one study measured. Changes are numbered by the printed parent chain.

Set 1
Target: Sal-like protein 4, full length isoform A (SALL4, Homo sapiens, UniProt Q9UJQ4, residues 1-1053)
Chain of UniProt Q9UJQ4 (whole entry, looked up): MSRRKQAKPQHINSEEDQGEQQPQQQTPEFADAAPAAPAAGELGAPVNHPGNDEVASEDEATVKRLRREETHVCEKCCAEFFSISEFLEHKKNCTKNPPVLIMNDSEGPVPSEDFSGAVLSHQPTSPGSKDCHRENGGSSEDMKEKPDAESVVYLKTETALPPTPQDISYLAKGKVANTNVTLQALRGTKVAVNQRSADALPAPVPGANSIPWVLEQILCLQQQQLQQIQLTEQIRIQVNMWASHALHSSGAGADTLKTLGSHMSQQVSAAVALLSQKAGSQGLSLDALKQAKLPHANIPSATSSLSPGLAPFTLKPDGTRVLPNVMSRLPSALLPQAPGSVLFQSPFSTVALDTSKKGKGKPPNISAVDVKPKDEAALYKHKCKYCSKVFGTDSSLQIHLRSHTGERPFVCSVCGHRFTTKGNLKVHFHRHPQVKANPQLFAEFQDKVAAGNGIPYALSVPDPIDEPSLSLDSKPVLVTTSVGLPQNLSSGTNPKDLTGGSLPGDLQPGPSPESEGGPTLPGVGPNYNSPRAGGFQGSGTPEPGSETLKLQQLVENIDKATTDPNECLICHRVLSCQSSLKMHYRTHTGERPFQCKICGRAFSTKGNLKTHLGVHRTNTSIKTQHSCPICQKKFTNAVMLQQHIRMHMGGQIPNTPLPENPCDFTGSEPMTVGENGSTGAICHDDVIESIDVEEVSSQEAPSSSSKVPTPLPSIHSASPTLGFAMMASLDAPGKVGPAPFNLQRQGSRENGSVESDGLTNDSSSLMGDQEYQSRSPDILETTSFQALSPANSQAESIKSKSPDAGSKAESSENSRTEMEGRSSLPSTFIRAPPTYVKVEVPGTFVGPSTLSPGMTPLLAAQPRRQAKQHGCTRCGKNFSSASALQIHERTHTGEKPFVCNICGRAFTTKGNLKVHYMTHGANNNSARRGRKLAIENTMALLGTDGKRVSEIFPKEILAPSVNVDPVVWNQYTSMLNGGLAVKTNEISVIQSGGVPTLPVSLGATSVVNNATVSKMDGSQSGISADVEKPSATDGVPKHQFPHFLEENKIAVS
Method: universal PBM
Molecule type: double-stranded DNA, one strand shown
Medium: in vitro
Concentration: 600 nM
Notes: 8-mer, flanks averaged, mean of replicates
Direction: higher = stronger binding
| Oligonucleotide | E-score |
| --- | --- |
| ATAAGTTC | 0.233 |
| ACGCGATC | -0.0825 |
| AGGATAGG | -0.11 |
| AGAACATC | -0.00147 |
| CTAAATAG | 0.15 |
| AGGACGCA | -0.298 |
| AGATTCCG | -0.0223 |
| TAGCTATA | 0.261 |
| AGAGTTCA | -0.0428 |
| GGAGCGCA | -0.335 |
| AGAGTTGG | -0.098 |
| AATGTTCC | 0.0485 |
| ATCAAGGA | 0.149 |
| CGAGAGTC | -0.204 |
| GCCGTGGA | -0.234 |
| ACCTTTCG | -0.152 |
| TAGGGCGA | -0.0258 |
| CGATTCTA | 0.0479 |
| ACCATCGC | -0.0701 |
| AATTACGT | 0.147 |
| GACCATAA | 0.181 |
| AAACACTA | 0.294 |
| ACTTTTCT | 0.115 |
| AACGGATA | 0.088 |
| ATGAGCAT | 0.16 |

Set 2
Target: Interferon regulatory factor 7, full length, phosphomimetic (IRF7, Homo sapiens, UniProt Q92985, residues 1-503, S101K/S471D/S472D/S475D/S476D/S477D/S483D/S484D/S487D)
Method: protein-binding microarray
Molecule type: double-stranded DNA, one strand shown
Medium: in vitro
Concentration: 250 nM
Notes: 60-bp whole probe
Added: salmon DNA 0.4 mg/ml
Relative to: random background probes
Direction: higher = stronger binding
Constant ends, left off below: GCCTAGCAC … GTCTTGATTCGCTTGACGCTGCTG
Target sequence (chain): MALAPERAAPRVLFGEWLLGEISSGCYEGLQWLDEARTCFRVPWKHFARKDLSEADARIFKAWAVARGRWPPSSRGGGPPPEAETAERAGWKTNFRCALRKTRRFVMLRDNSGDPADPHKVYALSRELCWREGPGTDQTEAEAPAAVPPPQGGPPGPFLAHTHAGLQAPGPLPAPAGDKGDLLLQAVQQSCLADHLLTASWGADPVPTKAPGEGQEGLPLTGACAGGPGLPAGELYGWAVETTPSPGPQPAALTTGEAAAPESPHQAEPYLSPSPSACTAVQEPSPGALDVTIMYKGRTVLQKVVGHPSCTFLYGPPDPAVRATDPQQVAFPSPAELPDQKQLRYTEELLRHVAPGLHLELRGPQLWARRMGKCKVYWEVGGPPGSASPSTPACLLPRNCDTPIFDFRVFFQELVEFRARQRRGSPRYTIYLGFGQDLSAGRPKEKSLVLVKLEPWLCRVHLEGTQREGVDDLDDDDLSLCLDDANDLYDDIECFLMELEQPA
| Oligonucleotide | log fluorescence |
| --- | --- |
| TTAGGTTTCGGTCTAGGTTAGTGCTAG | 8.59 z-score |
| GACGGTTTCCTTATCCTGATGTGCTAG | 3.09 z-score |
| TACTGTCTGTTTCCTCTTTCTGTGCTA | 1.22 z-score |
| TGTGCTTTCCTGATGGTTCTGTGCTAG | 0.26 z-score |
| TTAGCTATCCTTCTCCTTTAGTGCTAG | 0.16 z-score |
| TTAGGTTCCGGCTTCGGTTAGTGCTAG | 2.08 z-score |
| GACTGACTGGACTATCGGGACGTGCTA | -0.196 z-score |
| CCATCTCTGCTCCTTCTGACAGTGCTA | 0.18 z-score |
| TCCAGCCTGTTTCCAGCAGGGTGCTAG | -0.105 z-score |
| GACGGTTTCGGCTATCGGGACGTGCTA | 3.65 z-score |
| TTAGATCTCAGTATCGGTTAGTGCTAG | 0.891 z-score |
| TTAGGTTTCGGGTAACGGTTAGTGCTA | 7.75 z-score |
| TTAGAACTAGGGTATCGATTAGTGCTA | 0.0443 z-score |
| GACGGACTGGGAATGGGGACGTGCTAG | -0.321 z-score |
| TTAGGACTGCTTACCCTTTAGTGCTAG | -0.137 z-score |
| TTAGGACTGGACTTTCGGTTTGTGCTA | 3.21 z-score |
| TCAGAGCTCCTCCTTCTCACTGTGCTA | -0.96 z-score |
| GACCGTTTCGGTTCCGGGACGTGCTAG | 7.29 z-score |
| GAGGGACTGGGGTATCGGGACGTGCTA | -0.306 z-score |
| TTTCCTTCCTCTTTTACCCCGTGCTAG | 3.33 z-score |
| TTAGAACTGCTTTTCCTTTAGTGCTAG | 0.711 z-score |
| TTAGGTCTCGGACTGAGTTAGTGCTAG | 0.215 z-score |
| GACTGTATCCTTCTCCTGACGTGCTAG | 0.459 z-score |
| TCATTTTTCTGATTGAAACTGTGCTAG | 2.7 z-score |

Set 3
Target: CCNF, cyclin fold, Cln2 fusion (human)
Method: yeast growth competition, sequencing
Medium: yeast
Notes: strong parent motif
Relative to: not given
Direction: higher = stronger binding
Parent: USP37 docking peptide (human); PSAKRSLGFLPQP
| Variant | normalised enrichment score |
| --- | --- |
| R5A | 0.0143 |
| P13A | 3.24 |
| P1A | 2.24 |
| G8A | 6.5 |
| K4A | 1.86 |
| P11A | 3.02 |

Set 4
Target: Histone acetyltransferase KAT6A, both winged helices, GST fusion (KAT6A, Homo sapiens, UniProt Q92794, residues 1-181)
Method: protein binding microarray
Molecule type: double-stranded DNA, one strand shown
Medium: in vitro
Concentration: not given
Notes: 8-mer, flanks averaged, mean of 2 arrays, mostly near background
Relative to: not given
Direction: higher = stronger binding
Residues (chain): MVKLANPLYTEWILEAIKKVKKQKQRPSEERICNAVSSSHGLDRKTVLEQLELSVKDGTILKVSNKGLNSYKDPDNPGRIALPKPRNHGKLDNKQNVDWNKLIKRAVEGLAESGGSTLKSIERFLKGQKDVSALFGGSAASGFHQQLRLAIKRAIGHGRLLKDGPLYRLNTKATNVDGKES
| Oligonucleotide | E-score |
| --- | --- |
| AAACACGT | -0.135 |
| AGACAGGA | -0.326 |
| ACTCTTTA | -0.174 |
| CGGTGCAA | 0.09 |
| AACTTCCA | -0.169 |
| AGATTTAA | -0.0125 |
| AGCAACCC | -0.015 |
| CGCGGTGC | 0.359 |
| CACCGCTC | 0.168 |
| GAGACCAC | -0.18 |
| AATATAAC | -0.0971 |
| GTACTGCA | -0.0389 |
| AGTGTCAG | -0.122 |
| ACGGGTGG | 0.162 |
| GACCCTCC | 0.00344 |
| GCTTGTTA | 0.0475 |
| AAAAAGCA | -0.185 |
| ACTATGAA | -0.0662 |
| ACGCCTAT | 0.0215 |
| ACGGTCGG | 0.247 |
| CATTCTTA | -0.101 |
| TCAAAGCA | -0.169 |
| GCTTTACA | 0.0741 |
| CTTCGACA | -0.0811 |
| CCTGACAC | -0.115 |

Set 5
Target: RNA binding protein fox-1 homolog 2, RRM domain, GST-SBP tag (RBFOX2, Homo sapiens, UniProt O43251-10, residues 100-194)
Method: RNA Bind-n-Seq
Molecule type: RNA
Medium: in vitro
Concentration: 365 nM
Notes: natural RNA segment, single round, ends assumed
Relative to: no-protein control
Direction: higher = stronger binding
Constant ends, left off below: GGGAGUUCUACAGUCCGACGAUC … UGGAAUUCUCGGGUGCCAA
| Oligonucleotide | RBNS enrichment (R) |
| --- | --- |
| UCUGUUUUUGUUAAUAUACCCAAAAUUGUAUAUAUCUUAUAACUGUUUUAGAAAUGGCACAUAGGCUUCUAUUACCUGUUAGGUGGAGAUUUUGUAUGUAAAUGUGUUAG | 0.998 |
| GUGAGAGGGGAUUUGAAUCUGUUUGCAAAUUGUCCAACCCACCAGGUCAACGUGAGGGGCUUACAUUCUGGGUUUGAUAAGAAAAGUGUUCAUUCAUGACUGCUAUGUCC | 1.37 |
| GUGCAUUGGGAAGGAUCUUUACUGCUUUGUGCUUGGCAUGUCAUUAUUUUCCAUUUGACAUUAGGGCCUUUCCAAAAUGAAUGUGAGGAAUUGCUUUCACUUCAAGACUU | 0.806 |
| AAGGCAGUGACCUCCUACUGACUUCCAACACAAUCCAGGGACAUUCUUCUCAACCCUUCAAACUUCUGGUGACACUUAAGAUGUAGCUGAUUCCCCUCAUCCGAACUGCU | 1.24 |
| GCCUUAUUCUUCAGCUAGUGGUUUAUAAAGAGGCUGCAUAGAAAGUUUUACACAUGGAAGCAGCUGAUGUAGAGACUUCAUAUAGGCAGCUGCAGUCCUAAAGUCUCAAG | 0.452 |
| AUGAUUUGGGGGAGGCUUUGGGAGCAAAAUAAGGAAGAGGGCUGAGCUGAGCUUCGGUUCUCCAGAAUGUAAGAAAACAAAAUCUAAAACAAAAUCUGAACUCUCAAAAG | 0.423 |
| CUAAUUAUAUUGCAAAUUAUUAGGGCUUCAUUGUAAUCUACUUUAUUAAUGAAAAAUGACAAAGCAGUGUACUGAUAAGCCAAGGUGCUUUUGAUCUGUAAUUUCUUCUC | 0.367 |
| UCUCUUAACAGUUAAACAAGCUGUUUACAGUUUAAACUGCUGAAUAUUAUUUGAGCUAUUUAAAGCUUAUUAUAUUUUAGUAUGAACUAAAUGAAGGUUAAAACAUGCUU | 0.379 |
| UAAAUAAAAUUAUGCUUUGUGGCUAUCCAUCAACAUAAGUAUAAAAAGAAAGAACGCUUCAACCCCCUUCCCCAUUUAGAUUAUUUAUUAACAUAUUUCGAAAGUAAGGU | 0.477 |
| GAUAGGGAAGGGAUAAUCUGAGAAUUUUUAAAAGAUGAUUUAAUGAGAAGAAGCACAAUUUUGAUUUUGAUGAGUCACUUUCUGUAAACAAUCUUGGUCUAUCUUUACCC | 0.561 |
| AUUCAUUCACGUGGCCUCUGCUCCUGUGUGGUCUGAGCAGGCUUCAUCUCUGUUUCUCUCAAGGCGUGUGCUUGGGCAGCUUGAGGUGAGGUUUUUCCUUCCCUGUGAAG | 0.707 |
| AAUGCCAGGCCAGUAAAAGUAUAACAGCAAAUAACCAUUGGUUAAUCUGGACUUAUUUUUGGACUUAGUGCAACAGGUUGAGGCUAAAACAAAUCUCAGAACAGUCUGAA | 0.388 |
